Published values collected from several papers.
Every numbered part comes from another study and shows a few of its results, in no order.

Series 1 — mode: inhibitor; tested at: 20 µM; measurement: inhibition
Target: Replicase polyprotein 1ab, nsp13 helicase (rep, Severe acute respiratory syndrome coronavirus 2, UniProt P0DTD1)
Oc1c(Br)cc(Br)c2cccnc12: -4.33%
CC(SC(=O)c1cccs1)C(=O)NCC(=O)O (stereo not drawn): -1.71%
CC(=O)OCC1=C(C(=O)O)N2C(=O)[C@@H](NC(=O)CCCC(N)C(=O)O)C2SC1 (stereo partly drawn): -4.4%
CCN1C(C)(C)CC(Oc2ccc(C(=O)Nc3ccc(NC(=O)Nc4cc(C(C)(C)C)on4)cc3)nc2)CC1(C)C: 11.8%
CC(C)(C)c1ccc(-c2nc3ccccc3[nH]2)cc1: 5.19%
CCCCCCCCNC(=O)/C(C#N)=C/c1cn(CCCN(C)C)c2ccccc12: 3.14%
O=C(O)CN(CCN(CC(=O)O)CC(=O)O)CCN(CC(=O)O)CC(=O)O: -1.46%
Cn1nnnc1SCC1=C(C(=O)O)N2C(=O)[C@@H](NC(=O)[C@H](OC=O)c3ccccc3)[C@H]2SC1: -2.72%
O=C(COc1cccc2c(=O)[nH]ccc12)c1ccccc1: 1.84%
O=C1NC(=O)[C@@H](c2cn3c4c(cccc24)CCC3)[C@@H]1c1c[nH]c2ccccc12: -1.69%
CC[N+](C)(CC)CCOC(=O)C1c2ccccc2Oc2ccccc21: 8.86%
C[C@@H]1CN(c2c(F)c(N)c3c(=O)c(C(=O)O)cn(C4CC4)c3c2F)C[C@H](C)N1: 3.38%
OC[C@H]1O[C@@H](O[C@@H]2[C@H](O)[C@@H](O)[C@H](O[C@H]3[C@H](O)[C@@H](O)C(O)O[C@@H]3CO)O[C@@H]2CO)[C@H](O)[C@@H](O)[C@H]1O (stereo partly drawn): 4.84%
O=c1cccc2n1C[C@@H]1CNC[C@H]2C1: 4.29%
Oc1c(Cl)cc(Cl)cc1Sc1cc(Cl)cc(Cl)c1O: 5.61%
c1ccc(COCCCc2c[nH]cn2)cc1: 1.65%
Cn1cc(-c2ccc3nnc(Sc4ccc5ncccc5c4)n3n2)cn1: 8.56%
CN1CCN(c2ccc(/C=C(\C#N)c3ccccc3Br)cc2)CC1: 4.37%
CC(C)(O)CC(=O)NCCn1ccc2ncnc(Nc3ccc(Oc4cccc(C(F)(F)F)c4)c(Cl)c3)c21: 2.18%
Cc1ccc(C(=O)Nc2cccc(C(F)(F)F)c2)cc1Nc1nc(-c2cccnc2)nc2c1cnn2C: 6.61%
C[C@]12CC[C@H]3C(=CCc4cc(O)ccc43)[C@@H]1CCC2=O: -3.03%
OC[C@H]1O[C@@H](c2ccc(F)c(Cc3cc4ccccc4s3)c2)[C@H](O)[C@@H](O)[C@@H]1O: 5.35%
Cc1c(N)nc([C@H](CC(N)=O)NC[C@H](N)C(N)=O)nc1C(=O)N[C@H](C(=O)N[C@H](C)[C@@H](O)[C@H](C)C(=O)N[C@H](C(=O)NCCc1nc(-c2nc(C(=O)NCCC[S+](C)C)cs2)cs1)[C@@H](C)O)[C@@H](O[C@@H]1O[C@@H](CO)[C@@H](O)[C@H](O)[C@@H]1O[C@H]1O[C@H](CO)[C@@H](O)[C@H](OC(N)=O)[C@@H]1O)c1cnc[nH]1: 4.95%
CN(C(=O)C(Cl)Cl)c1ccc(OC(=O)c2ccco2)cc1: 1.99%
C[C@]12CCC(=O)C[C@@H]1CC[C@@H]1[C@@H]2CC[C@]2(C)C=CC[C@@H]12: 2.31%

Series 2 — organism: SARS-CoV-2; effect on: cytopathic effect; cells: Vero E6; tested at: 10 µM; measurement: inhibition
Oc1cccc(-c2c3nc(c(-c4cccc(O)c4)c4ccc([nH]4)c(-c4cccc(O)c4)c4nc(c(-c5cccc(O)c5)c5ccc2[nH]5)CC4)C=C3)c1: 4.5%
C[C@@H]1O[C@@H](O[C@@H]2[C@@H](O)[C@H](OCCc3ccc(O)c(O)c3)O[C@H](CO)[C@H]2OC(=O)/C=C/c2ccc(O)c(O)c2)[C@H](O)[C@H](O)[C@H]1O: -5.7%
FC(F)(F)c1cc(NC(=S)Nc2ccc(Br)cc2-c2nnn[nH]2)cc(C(F)(F)F)c1: 25.4%

Series 3 — cell line: HEK-293T; effect on: pseudovirus infection; technique: FDA-approved drug library screen; organism: VSV pseudotyped with SARS-CoV-2 spike; tested at: 10 µM; time: 16 h; relative to: vehicle-treated; measurement: GFP-positive cells
O=C(c1ccc(F)c(F)c1Nc1ccc(I)cc1F)N1CC(O)([C@@H]2CCCCN2)C1: 40.9%
O=C1C(CC[S+]([O-])c2ccccc2)C(=O)N(c2ccccc2)N1c1ccccc1 (stereo not drawn): 105%
C[C@]12C=CC(=O)C=C1CC[C@H]1[C@@H]3C[C@@H](O)[C@](O)(C(=O)CO)[C@@]3(C)C[C@H](O)[C@@]12F: 100%
NCCCC[C@H](N[C@@H](CCc1ccccc1)C(=O)O)C(=O)N1CCC[C@H]1C(=O)O: 94%
CCn1cc(C(=O)O)c(=O)c2cc(F)c(N3CCNC(C)C3)c(F)c21 (stereo not drawn): 69%

Series 4 — technique: RNA Bind-n-Seq; form: RNA; medium: in vitro; tested at: 200 nM; notes: whole 134-nt RNA, ends assumed; together with: 150 mM LiCl; relative to: input library; reading: higher = stronger binding; measurement: log2 enrichment; all molecules: 7-deaza-guanosine replaces G
Target: Ras GTPase-activating protein-binding protein 1, full length (G3BP1, Homo sapiens, UniProt Q13283)
UniProt Q13283, sequence (whole entry, looked up): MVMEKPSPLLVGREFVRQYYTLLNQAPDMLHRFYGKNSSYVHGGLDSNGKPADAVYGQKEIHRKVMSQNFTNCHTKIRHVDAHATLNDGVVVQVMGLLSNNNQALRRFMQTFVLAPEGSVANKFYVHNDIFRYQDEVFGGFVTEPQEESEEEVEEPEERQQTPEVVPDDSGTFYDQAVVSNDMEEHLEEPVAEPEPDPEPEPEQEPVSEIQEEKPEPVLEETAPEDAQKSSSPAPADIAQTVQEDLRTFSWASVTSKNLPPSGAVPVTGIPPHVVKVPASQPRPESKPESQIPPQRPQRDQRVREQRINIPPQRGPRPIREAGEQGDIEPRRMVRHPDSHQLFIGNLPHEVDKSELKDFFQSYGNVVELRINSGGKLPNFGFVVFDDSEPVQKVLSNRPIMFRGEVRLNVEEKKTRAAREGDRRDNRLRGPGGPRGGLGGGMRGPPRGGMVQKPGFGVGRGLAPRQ
Constant ends, left off below: GGGAGUUCUACAGUCCGACGAUC … UGGAAUUCUCGGGUGUCAAGG
UCAAGUCCUGUGCUACACAUCGUAUGUACCGAAUCGGGGCCGGGCCGGGGCCGGGAAAGUAUUAUGUUACGCCGUUCGGAUCUGCACUUC: 0.058
GUCCUGUGCUACACAUCGUAUGUACCGAAUCGGGGAAAGGGGAAAAAAAGGGGUGGGGAAAGUAUUAUGUUACGCCGUUCGGAUCUGCAC: -0.57
CCUCAAGUCCUGUGCUACACAUCGUAUGUACCGAAUCGGGGCGGCGGGGCGGAAAGUAUUAUGUUACGCCGUUCGGAUCUGCACUUCCAG: -0.0353
UGGCCCUGGUGGCAUGCGGGGAGGAAGAGGUGGCCUCAUGGAUCGUGGUGGUCCCGGUUGAAUGUUCAGAGGUGGCCGUGGUGGAGACAG: -0.0322
UGGGAGGUGGAUUUUGUUUAUUUUUUUAGCUCAUCUCCAGGGGUGGGAAUUUUUUUUUAAUAUGUGUCAUGAAUAAAGUUGUUUUUGAAA: -0.341
CAAGUCCUGUGCUACACAUCGUAUGUACCGAAUCGGGAGGGUGGGUUUUUUUGGGAAAGUAUUAUGUUACGCCGUUCGGAUCUGCACUUC: 0.0792
AGUCCUGUGCUACACAUCGUAUGUACCGAAUCGGGGAAAGGGGAGGGGAAAAAGGGGAAAGUAUUAUGUUACGCCGUUCGGAUCUGCACU: 0.499
UCAAGUCCUGUGCUACACAUCGUAUGUACCGAAUCGGGUGGGAAAAAGGGAGGGAAAGUAUUAUGUUACGCCGUUCGGAUCUGCACUUCC: -0.16

Series 5 — technique: RNA Bind-n-Seq; form: RNA; medium: in vitro; tested at: not given; relative to: input RNA pool; reading: higher = stronger binding; measurement: bound/input enrichment
Target: RING finger protein unkempt homolog, zinc fingers 1-6, GST-SBP tag (UNK, Homo sapiens, UniProt Q9C0B0, residues 30-357)
UniProt Q9C0B0, sequence (30-357, looked up): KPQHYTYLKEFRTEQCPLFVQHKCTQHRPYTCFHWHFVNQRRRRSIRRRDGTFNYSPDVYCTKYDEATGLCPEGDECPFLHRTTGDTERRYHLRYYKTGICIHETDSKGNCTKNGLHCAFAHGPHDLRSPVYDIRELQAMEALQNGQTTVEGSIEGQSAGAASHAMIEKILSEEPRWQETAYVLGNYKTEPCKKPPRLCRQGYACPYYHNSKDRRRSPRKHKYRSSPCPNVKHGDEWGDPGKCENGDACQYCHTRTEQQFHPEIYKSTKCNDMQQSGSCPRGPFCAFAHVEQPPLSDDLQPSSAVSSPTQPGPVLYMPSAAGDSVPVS
Notes: RNA with constant flanks, human and mouse sites, ends assumed
Constant ends, left off below: GGGAGUUCUACAGUCCGACGAUC … CAACAGAGGAUUGAGCAUCA
CAGCACAUCAAUCCGUUGUUACCCACUUGCCUUAACAAGGAGGAGAGCAGAAGCUGUCAGUUUGUGUCCAAUUUCAUGUCUGAGUUGUCUCCAGUCAGAGCAGAGCUGCUUGGAUUCCUC: 0.198 ratio
UUAGCUUUGUUAAAUGUAGCAACUCAGGGAGUUCAUUUAUGGGACUUGCAAGACAGAGUUUUAGUAAGGAAAUAUCAAGGUGUUACCCAAGGGUUUUAUACAAUCCACUCGUGUUUUGGA: 2.1 ratio
UGGAAGAAGCUUUGUCAGUACCAUUUUGCUGAAAAGCAGUUUUGUAGACAUUUGAUCCUUUCAGAAAAAGGUCAUAUUGAAUGGAAGUUGAUGUACUUUGCACUUCAGAAACAUUACCCA: 0.101 ratio
AGUUAAUGGAGAAAACACACCUUCAUCCCCGUCUCAGGUUGCUGCCAGACCCAAAAAUGCUCCAGCUCCAAAGCCAGUCACAUCUGCGCCCACCAGUGACACGGUUAAUGGAGAAUCAUC: 0.217 ratio
UUUGAAGAAUAUGUAAUUGUUGGUUUAAACUGGCUUCAAGCAGUAAUAAAAAGGUGGUGGUCAGAACUCUCAUCUACGUCAGAAAUUAUAAGUGAUGGAAAUAUUAAGAUUUUAAAGCAA: 0.802 ratio
GCUUGUGCCACUCAGGCUAUCGUAAGUGUACUACUGAACUGUACGCAUCAAGAUGUGCAUUUAGGAGAGACAUUAUCAGAAUUUAAAGAAUUUUCUCAAAGUUUUGAUGCAGCUAUGAAG: 0.776 ratio
UUAAUAACAAGCAACUGCACAUCAAAGUCAGUUCCUGUAAGGAGACGUUCAUUUGAAUUUUUAGAUUUGCUGCUGCAAGAAUGGCAGACUCAUUCACUGGAAAGACAUGCAGCUGUUUUG: 0.23 ratio
ACUUUACACUUUGUGCAAUGGCUUUCUCUUCAGAAUGACUUUGUGAAUGCACUUUGUGGCCUUUUGAGGGGGUAAGGGUCAGGAGAGAAUUCAUGUUAAUUUCUUUAACAUUGUUAUGUA: 0.264 ratio

Series 6 — technique: protein binding microarray; form: double-stranded DNA, one strand shown; medium: in vitro; tested at: not given; relative to: not given; reading: higher = stronger binding; measurement: E-score
Target: Histone acetyltransferase KAT6A, both winged helices, GST fusion (KAT6A, Homo sapiens, UniProt Q92794, residues 1-181)
Notes: 8-mer, flanks averaged, mean of 2 arrays, mostly near background
Target sequence (chain): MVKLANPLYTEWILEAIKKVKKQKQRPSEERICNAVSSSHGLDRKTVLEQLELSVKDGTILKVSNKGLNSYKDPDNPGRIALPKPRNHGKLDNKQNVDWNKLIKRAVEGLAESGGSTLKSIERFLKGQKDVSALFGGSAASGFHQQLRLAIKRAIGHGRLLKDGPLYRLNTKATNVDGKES
CACGCTTC: 0.187
CTCAAACA: -0.0101
GGAGTGTA: 0.105
AGCAAAGA: -0.0953
ACATCGGC: 0.205
GGCTGCCA: -0.0732
TGATCCCA: -0.169
ACAAGTGC: -0.163

Repeated from above (series 6):
CACGCTTC: 0.187
CTCAAACA: -0.0101
GGAGTGTA: 0.105
